Literature values that unrelated publications cite.
Numbered parts are unrelated; values within a part may stem from several laboratories.

Block 1 — method: isocratic RP-HPLC, C18 column; form: peptide; sample: water/acetonitrile, 0.1% TFA; temperature: 25 °C
Molecule	retention coefficient S
LASAADFR	17.5
QTYSK	24.3
LLLGGDFR	16.8

Single results of other studies
B1: CCL1; sequence looked up; chain KSMQVPFSRCCFSFAEQEIPLRAILCYRNTSSICSNEGLIFKLKRGKEACALDTVGWVQRHRKMLRHCPSKRK
Substance	tested on	assay	system	setting	quantity	value
GVLDNLKSAAKDLAGHLATKVIKKI	Staphylococcus aureus	–	peptide, ATCC 33591	–	MIC	8 µg/mL
B1 (CCL1)	CCR8 K195A mutant	IP accumulation, agonist	–	–	EC50	7.5 nM
GQLNKFIKKAQRKFHEKFAK	Acinetobacter baumannii	–	peptide, ATCC BAA-1605	–	MIC	256 µg/mL
pegcetacoplan	–	–	human	90 mg/day for 28 days, approximate	AUC(0-last)	~193000 µg·h/mL
RQIKIWFQNKKWKWKK	Klebsiella pneumoniae	–	peptide	–	MIC	1000 µg/mL
RQIKIWFQNRKWKWKK	Klebsiella pneumoniae	–	peptide	–	MIC	500 µg/mL

Repeated from above (single results of other studies):
Substance	tested on	assay	system	setting	quantity	value
RQIKIWFQNKKWKWKK	Klebsiella pneumoniae	–	peptide	–	MIC	1000 µg/mL
